Results pooled from the literature.
Numbered parts are unrelated; each lists some results of a single study.
Chain of UniProt Q9UK32 (whole entry, looked up): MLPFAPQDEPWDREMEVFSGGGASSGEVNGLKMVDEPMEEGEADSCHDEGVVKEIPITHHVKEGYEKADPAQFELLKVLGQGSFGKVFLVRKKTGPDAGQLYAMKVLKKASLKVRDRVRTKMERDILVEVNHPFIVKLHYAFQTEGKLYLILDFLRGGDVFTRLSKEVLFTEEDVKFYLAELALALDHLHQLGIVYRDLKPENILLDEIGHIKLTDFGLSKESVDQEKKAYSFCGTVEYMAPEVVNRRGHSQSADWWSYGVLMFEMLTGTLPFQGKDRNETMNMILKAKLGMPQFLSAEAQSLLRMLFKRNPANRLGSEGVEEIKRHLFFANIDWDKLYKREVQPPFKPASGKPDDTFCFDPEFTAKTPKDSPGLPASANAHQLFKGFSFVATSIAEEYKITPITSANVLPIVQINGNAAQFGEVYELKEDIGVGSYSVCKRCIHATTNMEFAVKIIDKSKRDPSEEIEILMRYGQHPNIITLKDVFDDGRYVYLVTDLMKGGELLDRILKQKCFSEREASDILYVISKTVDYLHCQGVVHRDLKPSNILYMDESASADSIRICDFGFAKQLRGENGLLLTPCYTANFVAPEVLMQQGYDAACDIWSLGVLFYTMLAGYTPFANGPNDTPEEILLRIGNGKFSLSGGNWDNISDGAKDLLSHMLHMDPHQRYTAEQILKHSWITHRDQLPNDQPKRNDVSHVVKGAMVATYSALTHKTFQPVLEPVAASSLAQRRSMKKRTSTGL
Chain of UniProt P52333 (whole entry, looked up): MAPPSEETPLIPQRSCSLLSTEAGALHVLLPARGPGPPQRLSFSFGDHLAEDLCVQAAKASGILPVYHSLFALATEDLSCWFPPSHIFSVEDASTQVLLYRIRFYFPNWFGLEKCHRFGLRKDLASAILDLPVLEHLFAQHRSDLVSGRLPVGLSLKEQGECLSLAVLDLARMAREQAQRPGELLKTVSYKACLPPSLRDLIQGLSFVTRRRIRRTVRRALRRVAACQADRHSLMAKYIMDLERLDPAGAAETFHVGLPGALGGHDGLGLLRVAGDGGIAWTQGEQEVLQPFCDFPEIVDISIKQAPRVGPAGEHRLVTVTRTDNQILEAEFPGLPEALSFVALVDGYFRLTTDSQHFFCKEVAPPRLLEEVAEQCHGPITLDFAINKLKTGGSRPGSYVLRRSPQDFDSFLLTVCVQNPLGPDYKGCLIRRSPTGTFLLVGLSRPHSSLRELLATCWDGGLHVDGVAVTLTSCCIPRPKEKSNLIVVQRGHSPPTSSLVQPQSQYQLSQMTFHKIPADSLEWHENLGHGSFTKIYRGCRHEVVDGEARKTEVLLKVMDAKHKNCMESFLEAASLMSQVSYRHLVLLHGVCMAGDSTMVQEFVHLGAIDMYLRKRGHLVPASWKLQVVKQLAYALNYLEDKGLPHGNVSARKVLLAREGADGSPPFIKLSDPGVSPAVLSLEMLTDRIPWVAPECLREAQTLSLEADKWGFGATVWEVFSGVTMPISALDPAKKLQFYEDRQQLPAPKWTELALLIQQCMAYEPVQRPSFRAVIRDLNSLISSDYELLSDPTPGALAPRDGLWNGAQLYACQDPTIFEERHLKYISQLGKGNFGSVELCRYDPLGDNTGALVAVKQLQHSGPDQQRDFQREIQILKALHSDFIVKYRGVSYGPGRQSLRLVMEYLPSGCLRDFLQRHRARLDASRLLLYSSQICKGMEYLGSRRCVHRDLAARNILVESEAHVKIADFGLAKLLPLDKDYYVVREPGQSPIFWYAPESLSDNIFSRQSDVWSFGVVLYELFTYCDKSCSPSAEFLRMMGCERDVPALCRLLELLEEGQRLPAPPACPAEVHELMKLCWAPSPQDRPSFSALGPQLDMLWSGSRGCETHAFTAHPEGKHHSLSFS
Chain of UniProt P49336 (whole entry, looked up): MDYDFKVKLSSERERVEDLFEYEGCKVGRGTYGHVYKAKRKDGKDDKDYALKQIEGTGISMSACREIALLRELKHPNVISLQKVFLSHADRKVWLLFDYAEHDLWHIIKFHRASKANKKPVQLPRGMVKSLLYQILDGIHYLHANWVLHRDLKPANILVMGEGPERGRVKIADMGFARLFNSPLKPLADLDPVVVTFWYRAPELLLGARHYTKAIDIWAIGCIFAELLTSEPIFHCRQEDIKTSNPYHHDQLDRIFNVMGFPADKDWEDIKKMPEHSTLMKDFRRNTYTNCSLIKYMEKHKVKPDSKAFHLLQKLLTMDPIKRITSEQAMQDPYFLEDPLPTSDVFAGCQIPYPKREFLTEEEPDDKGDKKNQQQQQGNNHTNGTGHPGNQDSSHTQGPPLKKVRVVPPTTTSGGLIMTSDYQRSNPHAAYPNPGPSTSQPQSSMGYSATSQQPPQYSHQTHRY
Chain of UniProt Q9Y2H1 (whole entry, looked up): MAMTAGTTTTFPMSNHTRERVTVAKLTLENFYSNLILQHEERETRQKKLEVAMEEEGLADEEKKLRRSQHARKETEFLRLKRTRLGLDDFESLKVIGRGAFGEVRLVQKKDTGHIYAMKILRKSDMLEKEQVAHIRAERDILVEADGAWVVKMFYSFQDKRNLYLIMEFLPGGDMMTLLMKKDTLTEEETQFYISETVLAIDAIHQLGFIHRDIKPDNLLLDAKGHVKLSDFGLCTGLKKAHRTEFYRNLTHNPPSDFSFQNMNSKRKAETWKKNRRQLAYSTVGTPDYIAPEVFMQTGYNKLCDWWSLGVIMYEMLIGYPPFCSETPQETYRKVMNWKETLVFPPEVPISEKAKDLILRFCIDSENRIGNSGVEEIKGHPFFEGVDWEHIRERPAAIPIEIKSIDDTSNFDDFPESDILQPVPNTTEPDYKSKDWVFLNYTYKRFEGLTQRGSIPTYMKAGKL
Chain of UniProt Q9BQI3 (whole entry, looked up): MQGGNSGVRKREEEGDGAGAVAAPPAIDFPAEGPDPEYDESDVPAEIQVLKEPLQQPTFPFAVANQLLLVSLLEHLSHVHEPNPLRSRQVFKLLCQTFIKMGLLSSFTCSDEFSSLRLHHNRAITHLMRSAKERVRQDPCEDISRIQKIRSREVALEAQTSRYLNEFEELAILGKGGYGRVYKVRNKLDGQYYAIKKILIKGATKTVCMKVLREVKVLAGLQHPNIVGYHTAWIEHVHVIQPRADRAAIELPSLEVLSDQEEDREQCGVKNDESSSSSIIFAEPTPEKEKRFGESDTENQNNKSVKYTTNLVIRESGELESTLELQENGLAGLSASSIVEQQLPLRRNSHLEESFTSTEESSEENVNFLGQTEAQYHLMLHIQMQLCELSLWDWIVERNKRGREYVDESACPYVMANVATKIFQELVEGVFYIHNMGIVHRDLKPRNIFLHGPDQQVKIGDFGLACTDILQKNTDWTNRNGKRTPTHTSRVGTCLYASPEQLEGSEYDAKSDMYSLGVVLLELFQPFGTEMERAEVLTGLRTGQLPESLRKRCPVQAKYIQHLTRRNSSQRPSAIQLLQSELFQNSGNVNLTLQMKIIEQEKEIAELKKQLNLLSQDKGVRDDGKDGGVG
Chain of UniProt Q9BVS4 (whole entry, looked up): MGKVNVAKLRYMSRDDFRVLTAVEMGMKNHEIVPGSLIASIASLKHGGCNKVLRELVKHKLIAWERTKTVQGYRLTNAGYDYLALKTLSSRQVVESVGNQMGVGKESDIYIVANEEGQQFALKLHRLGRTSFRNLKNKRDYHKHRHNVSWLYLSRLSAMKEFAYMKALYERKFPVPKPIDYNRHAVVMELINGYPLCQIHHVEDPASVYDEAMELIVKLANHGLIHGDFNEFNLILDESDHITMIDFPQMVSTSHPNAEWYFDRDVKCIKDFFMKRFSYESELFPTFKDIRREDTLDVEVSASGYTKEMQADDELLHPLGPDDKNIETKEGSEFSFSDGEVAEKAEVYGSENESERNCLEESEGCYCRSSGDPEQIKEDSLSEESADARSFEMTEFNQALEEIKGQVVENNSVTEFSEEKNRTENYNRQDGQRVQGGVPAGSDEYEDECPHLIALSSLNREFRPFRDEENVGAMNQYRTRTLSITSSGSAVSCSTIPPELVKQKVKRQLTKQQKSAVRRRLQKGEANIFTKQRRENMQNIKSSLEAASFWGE
Chain of UniProt O95747 (whole entry, looked up): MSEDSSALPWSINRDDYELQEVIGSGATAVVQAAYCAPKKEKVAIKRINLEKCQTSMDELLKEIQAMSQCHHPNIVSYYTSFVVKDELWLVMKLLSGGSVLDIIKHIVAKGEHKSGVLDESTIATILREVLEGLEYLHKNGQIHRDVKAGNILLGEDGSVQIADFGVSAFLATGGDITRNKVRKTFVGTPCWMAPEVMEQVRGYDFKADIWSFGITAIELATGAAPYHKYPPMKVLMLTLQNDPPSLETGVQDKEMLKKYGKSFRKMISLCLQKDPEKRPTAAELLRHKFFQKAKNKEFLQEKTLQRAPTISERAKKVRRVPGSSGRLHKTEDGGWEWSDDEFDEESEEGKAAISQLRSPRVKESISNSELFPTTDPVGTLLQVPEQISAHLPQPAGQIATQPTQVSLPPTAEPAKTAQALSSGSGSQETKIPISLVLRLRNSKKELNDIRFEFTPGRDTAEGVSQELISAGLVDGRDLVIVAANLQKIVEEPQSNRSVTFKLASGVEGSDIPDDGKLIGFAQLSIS

Set 1
Target: Casein kinase I isoform delta (CSNK1D, Homo sapiens, UniProt P48730)
Chain of UniProt P48730 (whole entry, looked up): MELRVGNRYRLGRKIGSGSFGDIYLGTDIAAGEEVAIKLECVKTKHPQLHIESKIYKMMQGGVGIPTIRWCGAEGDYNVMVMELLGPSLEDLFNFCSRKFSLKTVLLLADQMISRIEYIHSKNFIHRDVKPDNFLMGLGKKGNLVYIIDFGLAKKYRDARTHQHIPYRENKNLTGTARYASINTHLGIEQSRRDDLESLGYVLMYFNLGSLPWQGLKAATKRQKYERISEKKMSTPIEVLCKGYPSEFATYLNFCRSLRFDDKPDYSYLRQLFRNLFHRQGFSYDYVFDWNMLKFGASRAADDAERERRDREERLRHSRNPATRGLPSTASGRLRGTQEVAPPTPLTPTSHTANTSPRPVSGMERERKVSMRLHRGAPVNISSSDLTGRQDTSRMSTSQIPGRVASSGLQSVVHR
Read-out: enzyme activity
Mode: inhibitor
Concentration: 0.5 µM
Baseline: control
Measurement: remaining activity
CN(C)S(=O)(=O)c1ccc2c(c1)/C(=C/c1cc3c([nH]1)CCCC3)C(=O)N2: 99.7%
CCCCc1c(-c2ccc(OC)cc2)[nH]c2nccnc12: 94.7%
Cc1ccc(S(=O)(=O)/C=C/C#N)cc1: 103%
CCCNC(=O)Nc1ccc(Oc2ncnc3cc(OC)c(OC)cc23)cc1Cl: 98.9%
Cc1cc(Nc2cc(N3CCN(C)CC3)nc(Sc3ccc(NC(=O)C4CC4)cc3)n2)[nH]n1: 92.6%

Set 2
Species: human
Sample: microsomes or S9
Concentration: 2 µM
Time: 0.5 h
Measurement: remaining compound
CCOc1cc2c(cc1C1CC(=O)NCc3nc4sccn4c31)CCC2 (stereo not drawn): 13.4%
COc1cc(=O)[nH]cc1C(=O)N1CCN(C)c2ncccc2C1: > 99%
COCCCNC(=O)c1nc(CC(=O)Nc2ccc3cc[nH]c3c2)no1: 77.5%
COCCN(C)C(=O)C1(C)CN(S(C)(=O)=O)CCO1 (stereo not drawn): 91.8%
O=C1CSC(Nc2cccc(C(F)(F)F)c2)=N1: 13.6%

Set 3
Cell line: mouse MPNST tumor cells
Technique: high-content nuclear imaging
Measured: cell number
Concentration: 10 µM
Time: 12 h
Notes: mean of 2 replicates
Baseline: plate mean
Reading: higher = more cells
Measurement: nuclei count
Nc1ccc(S(=O)(=O)NC(=O)c2ccccc2)cc1: 0.834 z-score
O=C(Nc1ccc(C(O)(C(F)(F)F)C(F)(F)F)cc1)c1ccc(C(F)(F)F)cc1: -1.83 z-score
CC(C)NCC(O)c1ccc(O)c(O)c1 (single isomer, unassigned; (-)): 0.655 z-score
COc1ccc(-n2c(SCc3nc(-c4ccc(C)cc4)no3)nnc2-c2ccncc2)cc1: 1.46 z-score
CC(C)NCC(O)c1ccc2ccccc2c1 (stereo not drawn): 2.92 z-score
CN1CCc2cccc3c2[C@H]1Cc1ccc(O)c(O)c1-3: -4.61 z-score
Oc1cc2c(c(Cl)c1O)CCNCC2c1ccccc1 (stereo not drawn): 0.937 z-score

Set 4
Structure (SMILES): CCCOc1ccc([C@H]2[C@H](C(=O)O)[C@@H](c3ccc4c(c3)OCO4)CN2CC(=O)Nc2c(CC)cccc2CC)cc1
Technique: competition with immobilised ligand
Concentration: 1 µM
Measurement: remaining binding
Serine/threonine-protein kinase PAK 5 (PAK5, Homo sapiens, UniProt Q9P286); cell-free assay: 73%
Tyrosine-protein kinase ABL1, non-phosphorylated (ABL1, Homo sapiens, UniProt P00519, H396P); cell-free assay: 63%
Aurora kinase C (AURKC, Homo sapiens, UniProt Q9UQB9); cell-free assay: 91%
Cyclin-dependent kinase 8 (CDK8, Homo sapiens, UniProt P49336); cell-free assay: 76%
Mitogen-activated protein kinase kinase kinase kinase 1 (MAP4K1, Homo sapiens, UniProt Q92918); cell-free assay: 92%
Serine/threonine-protein kinase 38-like (STK38L, Homo sapiens, UniProt Q9Y2H1); cell-free assay: 88%
Eukaryotic translation initiation factor 2-alpha kinase 1 (EIF2AK1, Homo sapiens, UniProt Q9BQI3); cell-free assay: 84%
Mitogen-activated protein kinase kinase kinase 19 (MAP3K19, Homo sapiens, UniProt Q56UN5); cell-free assay: 77%
Serine/threonine-protein kinase OSR1 (OXSR1, Homo sapiens, UniProt O95747); cell-free assay: 75%
Focal adhesion kinase 1 (PTK2, Homo sapiens, UniProt Q05397); cell-free assay: 86%
Tyrosine-protein kinase JAK3, JH1 (JAK3, Homo sapiens, UniProt P52333); cell-free assay: 84%
Serine/threonine-protein kinase RIO2 (RIOK2, Homo sapiens, UniProt Q9BVS4); cell-free assay: 71%
Ribosomal protein S6 kinase alpha-6, C-terminal kinase domain (RPS6KA6, Homo sapiens, UniProt Q9UK32); cell-free assay: 77%
Receptor-type tyrosine-protein kinase FLT3 (FLT3, Homo sapiens, UniProt P36888, D835V/ITD); cell-free assay: 59%
Myosin-IIIb (MYO3B, Homo sapiens, UniProt Q8WXR4); binding: 66%

Other studies, line by line
CC(C)n1cnc(-c2ccc(F)cc2)c1-c1ncc(C(=O)Nc2ccc(N3CCN(C)CC3)cc2)[nH]1
patients with Fatigue (human, idiopathic pulmonary fibrosis; 60 mg once daily, trial, treatment-emergent): 0%

Excerpt of the above (set 3):
O=C(Nc1ccc(C(O)(C(F)(F)F)C(F)(F)F)cc1)c1ccc(C(F)(F)F)cc1: -1.83 z-score
CC(C)NCC(O)c1ccc(O)c(O)c1 (single isomer, unassigned; (-)): 0.655 z-score
CN1CCc2cccc3c2[C@H]1Cc1ccc(O)c(O)c1-3: -4.61 z-score
